Earlier results that unrelated publications cite.
Each numbered part shows a few of the values that one paper quotes.

Set 1 — cell line: MCF7; technique: microarray; tested at: concentration not given
SMILES: OCCN1CCN(CCC=C2c3ccccc3Sc3ccc(C(F)(F)F)cc32)CC1
measured: ISG20 mRNA (probe 33304_at); baseline: vehicle (DMSO) — fold change: 1.18.
For measured: MAFF mRNA (probe 36711_at); baseline: vehicle (DMSO): fold change read 1.52.
It gave 0.97 for fold change (measured: SYNGR3 mRNA; baseline: DMSO).

Other studies, line by line
Cl.OC1CCCCC1N1CCC(c2ccccc2)CC1 (racemic) — result for activity class: “inactive” (Toxoplasma gondii; parasite growth; concentration not given, drug repurposing screen).
For CCOC(=O)[C@@H]1CSCC(=O)N[C@@H](CC)C(=O)N(C)[C@@H](C)C(=O)N[C@@H](CC(C)C)C(=O)N(C)[C@H](C)C(=O)N(CC(C)C)CC(=O)N[C@H](CC(C)C)C(=O)N(C)[C@H](C)C(=O)N[C@@H](CC(C)C)C(=O)N1C, “log permeability (Pe)” read -6.03 (MDCK).
With NC(=O)c1ccc2nc(-c3ccc(C4(N)CCC4)cc3)c(-c3ccccc3)n2n1 the Kd was 330 nM (MKNK2; KINOMEscan).
Oc1cc(Cl)ccc1Oc1ccc(Cl)cc1Cl: antiparasitic activity “active” (Toxoplasma gondii; parasite growth; concentration not given).
The IC50 of CN1CCN(C(=O)C(C)(C)c2ccc(C(=O)Nc3cn4cc(-c5ccncc5)ccc4n3)cc2)CC1 is reported as 230 nM (DYRK1B; kinase activity).
C=CCN1CC[C@]23c4c5ccc(O)c4O[C@H]2C(=O)CC[C@@]3(O)[C@H]1C5: activity class “inactive” (Toxoplasma gondii; parasite growth; concentration not given, published screen).
With CC[C@H]1C(=O)N[C@@H](CC(C)C)C(=O)N2CCC[C@@H]2C(=O)N(C)[C@@H](Cc2ccccc2)C(=O)N[C@@H](CC(C)C)C(=O)N(C)[C@H](C)C(=O)N1C the logD was 1.06 (pH 7.4).
CNC1CC(c2ccc(Cl)c(Cl)c2)c2ccccc21 (stereo not drawn): antiparasitic activity “active” (Toxoplasma gondii; parasite growth, drug repurposing screen; concentration not given).
CC(C)(O)[C@H](F)CN1Cc2cc(NC(=O)c3cnn4cccnc34)c(N3CCOCC3)cc2C1=O has a Ki of 1.4 nM (IRAK4; biochemical).
